Assay results of several laboratories.
Every numbered part comes from another study and shows a few of its results, in no order.

Block 1 — method: protein binding microarray; molecule type: double-stranded DNA, one strand shown; sample: in vitro; tested at: not given; reference: not given; direction: higher = stronger binding
Target: Histone acetyltransferase KAT6A, winged helix 1, GST fusion (KAT6A, Homo sapiens, UniProt Q92794, residues 1-85)
Setting: 8-mer, flanks averaged, mean of 2 arrays, mostly near background
Target sequence (chain): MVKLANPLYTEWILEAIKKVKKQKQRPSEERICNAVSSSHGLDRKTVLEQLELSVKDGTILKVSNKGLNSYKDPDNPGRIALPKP
Strand | E-score
ATCAAGTA | -0.138
AGTGTACG | 0.163
ACTTACAA | -0.0468
AAATTGTG | -0.371
GCTCTTCA | 0.00864
GTATCGAA | 0.0275
AAAAGCGG | 0.315
AGCACTTC | -0.121
GCAGAATA | 0.00898
AGTGGGTA | -0.0969
CGTCTTTA | -0.0172
GAGGTCAA | -0.184
AGACATTC | -0.0714
ATATTTGA | -0.081
CGCGCCCC | 0.404
ATGGCGTA | 0.158
AAAACCCT | -0.119
ATCAAGTC | -0.0546
AGATCAGC | 0.0794
ATGTCTTC | -0.163
TGGTTACA | -0.0555
AGCATGTG | -0.096
CTGTTTTA | -0.108
AGGTTGGG | -0.165
ATAAGGGG | -0.0261

Block 2 — method: aptamer microarray, sandwich; molecule type: DNA with 2'F-ANA; sample: in vitro; tested at: 200 nM; together with: Cy3 exosite-II aptamer, 400 nM; direction: higher = stronger binding; strand: GGTTGGTGTGGTTGG
Target: Prothrombin, mature alpha-thrombin (F2, Homo sapiens, UniProt P00734)
Setting: whole 15-mer aptamer, many near background
Modification | mean fluorescence intensity
2'F-ANA at 1 2 3 4 10 13 14 15 | 51.3 a.u.
2'F-ANA at 1 3 4 6 7 10 11 | 61.6 a.u.
2'F-ANA at 6 7 8 10 11 12 13 14 | 101 a.u.
2'F-ANA at 3 4 7 9 11 13 | 581 a.u.
2'F-ANA at 3 5 9 11 13 15 | 81.1 a.u.
2'F-ANA at 2 3 4 7 8 9 15 | 759 a.u.
2'F-ANA at 1 3 5 7 | 63 a.u.
2'F-ANA at 1 2 4 5 6 8 9 13 | 53.5 a.u.
2'F-ANA at 2 6 8 9 11 15 | 323 a.u.
2'F-ANA at 2 6 7 8 12 14 15 | 206 a.u.
2'F-ANA at 1 2 3 5 8 10 11 15 | 47.4 a.u.
2'F-ANA at 1 2 3 4 6 9 13 14 15 | 57.6 a.u.
2'F-ANA at 1 2 4 6 10 14 15 | 47.8 a.u.
2'F-ANA at 1 3 4 5 6 8 9 12 13 14 | 45.6 a.u.
2'F-ANA at 1 3 4 8 9 12 13 15 | 295 a.u.
2'F-ANA at 3 4 7 9 14 15 | 293 a.u.
2'F-ANA at 2 3 5 8 10 15 | 61.9 a.u.
2'F-ANA at 1 2 7 11 12 13 | 243 a.u.

Block 3 — method: RNA Bind-n-Seq; molecule type: RNA; sample: in vitro; tested at: 365 nM; reference: no-protein control; direction: higher = stronger binding
Target: RNA binding protein fox-1 homolog 2, RRM domain, GST-SBP tag (RBFOX2, Homo sapiens, UniProt O43251-10, residues 100-194)
Setting: natural RNA segment, single round, ends assumed
Residues (chain): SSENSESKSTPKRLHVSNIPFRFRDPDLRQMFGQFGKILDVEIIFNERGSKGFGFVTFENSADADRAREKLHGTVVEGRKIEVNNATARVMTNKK
Strand | RBNS enrichment (R)
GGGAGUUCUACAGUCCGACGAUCUUCAGUAUUUUAUACAACUACUGCCACAUCCUUAUACUUUAUUGCUUUUCUGUCUUCUUCAACCUGGGAGAGACCCUGAAUUUGAGUGUGUUCUCUAAUCAAUAGUGGUUUGGAAUUCUCGGGUGCCAA | 0.666
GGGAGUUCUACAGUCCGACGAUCAGGAACAAUCACCACAACAUGAUGUAGGUGCCACCCACCUCCUGAGCUGUUUUUGUAAAAUGACUGCUGACAGCAAGUUCUUGCUGCUCUCCAAUCUCAUCAGACAGUAGUGGAAUUCUCGGGUGCCAA | 0.161
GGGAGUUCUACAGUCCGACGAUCAUUAUUUUAAGUAAUGUUAAUUGAAAAAAUUUUUUCUUUUUGACAAUAUAAAAAACAUUUUAAAUUUCCUAGAAAUGUCUUCAGGGUAAUGCCAAUUUAAGAUCUCUCUUUGGAAUUCUCGGGUGCCAA | 0.628
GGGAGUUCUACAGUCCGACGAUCGUUCUUUAGUUAGCAGUUCAGGCUGGUUGGACAGGUUUGAAUCAAAUUGUACUUUGUUCCAUUGUUAAUUGAGAAACUGUUUCAAUAAAAUAUUCUUUUCUAUAGGUUGUUGGAAUUCUCGGGUGCCAA | 0.543
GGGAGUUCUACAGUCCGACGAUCCUGAAAUAGGUGAUCAGGUUAGUGGUGUCUGUCAGCUGUCUAAGAGGUUGGAAAAUGAACUACUCAAGAUAGUCACGAAAAUACUGAAAGUUUGAUUUUUCUUUCCAUAUUGGAAUUCUCGGGUGCCAA | 0.746
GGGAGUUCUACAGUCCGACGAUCUUUUAAUUCACCUCUUCUUUUCACCUCUUUAACCACUCCUCAGGAACAGAACACUUCUAGGACUGGGGGUCUUUUAGCUCCAUAAGCAAGUGAGCAGAUGGGACAAGUUAUGGAAUUCUCGGGUGCCAA | 0.241
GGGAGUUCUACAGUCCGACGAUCAUCUGCUGCCUUAGACCUGGGUGGGAUGUCUUGCUUAUUUGAAAUGUGUAGUGUUGAUUGACACAUUAAGACUAGCAGUCUUUAAUCCUGCCACUUUAUUGAGGUGUUAUUGGAAUUCUCGGGUGCCAA | 0.735
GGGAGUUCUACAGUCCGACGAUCUGGCCAACAUAAUGUUUUCACAGUUCCUCUUUGUUGGAAGAAGUGUGUGACCUACAAGAUUCCUGGUUGAUACAGUUCAGGUGAGAAACUGUUUGAUUAUAGAAAAGACCUGGAAUUCUCGGGUGCCAA | 0.67
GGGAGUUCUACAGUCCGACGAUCCUCCCAGUCUGGGCAAAGGAGUGCUAUGCGGAAUUCUCUGCAUAGCAGAAAAGCUCCCACCAUUUUCUUUUGAUGUGGUUUUAAAGUCUCACGUUCUCUAUAAUAGAAACUGGAAUUCUCGGGUGCCAA | 0.381
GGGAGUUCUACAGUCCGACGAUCCUGCGGCCUGACUGACGCCUUUUGAUGCUCACGGGAAAUUUCUGCCCAGGAUCUCAGCCCCAGGCUGGUUGUUUCUACAAAUCUCUCUCAAAUGUAUUAUUUUGGUGACAUGGAAUUCUCGGGUGCCAA | 0.296
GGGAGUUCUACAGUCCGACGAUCAUUAUAAAUGGGUGGUUGUUUGGUUUGUUUAUUUUUAUAAUUUUUACUGAUGCUCAGUAACCAUGAAAAACUGUGCACAUUCAUGUACUAAUAGAUCUGUACCUAUCUAUUGGAAUUCUCGGGUGCCAA | 0.507
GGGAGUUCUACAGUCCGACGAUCUCCCCACGGAUCCACCAGGAUUGAAGGAGCUUCGGACCCAUGCCGCCUUCUUUUCCCACGCCUCUAACUUAAUGUUUUAUAUUUGAAUUGUGUGGCUCAAGGGUCAUGUAUGGAAUUCUCGGGUGCCAA | 0.263

Block 4 — method: protein-binding microarray; molecule type: double-stranded DNA, one strand shown; sample: in vitro; tested at: 0.8 µM; setting: whole 60-bp probe, no competitor; direction: higher = stronger binding
Target: Centromere-binding protein 1, full length, N-terminal tag (CBF1, Saccharomyces cerevisiae, UniProt P17106, residues 1-351)
UniProt P17106, sequence (whole entry, looked up): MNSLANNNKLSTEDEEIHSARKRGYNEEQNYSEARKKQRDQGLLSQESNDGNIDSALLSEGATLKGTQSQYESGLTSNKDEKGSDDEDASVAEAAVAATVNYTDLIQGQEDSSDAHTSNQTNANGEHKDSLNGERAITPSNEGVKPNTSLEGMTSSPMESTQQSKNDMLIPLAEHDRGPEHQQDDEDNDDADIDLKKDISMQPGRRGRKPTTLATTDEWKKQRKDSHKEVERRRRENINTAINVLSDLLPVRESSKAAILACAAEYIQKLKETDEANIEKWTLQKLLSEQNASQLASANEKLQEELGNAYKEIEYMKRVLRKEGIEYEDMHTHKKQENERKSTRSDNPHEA
Strand | fluorescence intensity [a.u.]
GAATGAAGAGACCAGCATCAGAATTTTCATCATTAGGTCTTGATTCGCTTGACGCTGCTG | 517
CTACATATTTTGGCACGGGTGATGTACCGATCTTTCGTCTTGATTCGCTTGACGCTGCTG | 672
CTACTTTACAATCGTGATGTGCCTATTTAATTCTTCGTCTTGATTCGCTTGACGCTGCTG | 589
CTATGGAGATCCAGTCACGCCGGATGACTGGGTTTCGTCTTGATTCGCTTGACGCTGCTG | 765
GAATCAAGTATGTACCTCACGAGAGCAATTTCATAGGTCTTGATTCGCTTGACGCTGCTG | 576
CTAGTGAAAACGGTGAACGTGGTTGTATACCTTTTCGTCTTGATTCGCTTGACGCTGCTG | 558
GAAATTGTTGGATCAGCTGTGCTAAGGGGAAGGTAGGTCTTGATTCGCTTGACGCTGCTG | 687
CTACCAATCGCATGGGTGGTGGTGGATGTTGTCTTCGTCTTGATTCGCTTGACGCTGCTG | 516
GAAAGAAAAAAGAGATGGGTGATGAATACGTTTTAGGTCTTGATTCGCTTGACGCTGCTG | 516
GAAACTTTTACACGTGACCGTAGAGGCTGCGCGTAGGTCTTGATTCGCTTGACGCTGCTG | 16900
CTAAGAACGAACCCGCACGACGCGTGCAACGCTTTCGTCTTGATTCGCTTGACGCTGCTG | 602
CTAGTTCCCGAATGTTGTAACATCAAAGCCAAGTTCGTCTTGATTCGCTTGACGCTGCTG | 531
GAAAAAAGGGAGTGGCACGAGATTCATACAATGTAGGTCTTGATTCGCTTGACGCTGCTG | 762
CTAATTTCATCACCCCACGCCATTGTTTTGTCCTTCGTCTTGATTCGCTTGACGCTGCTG | 563
CTAGATATGCTTGCCCTTACATCAGAATTACCATTCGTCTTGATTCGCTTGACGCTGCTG | 521
CCTAACTACTATAACGTGAGCAAATAGCTTCGTACAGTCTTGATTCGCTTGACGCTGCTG | 665
TGTACGAAGCTATTTCTGATGATTATAGTAGTTAGGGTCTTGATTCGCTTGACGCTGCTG | 486
GAAGCTATCGACACCCGCATGACAGAATCTTAATAGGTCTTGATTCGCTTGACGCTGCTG | 614
CTACTATTACAATTGTTCGTGATATGTATACATTTCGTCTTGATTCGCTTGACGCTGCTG | 581
CTACGGTTGTCTTTTCATGTGAGCAGAACTAAATTCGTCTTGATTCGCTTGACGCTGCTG | 691
GAATTCAGTCCATTGCGCGTGCAAGAATTTTCCTAGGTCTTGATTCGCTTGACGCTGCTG | 953
TGTACGAAGCTATATCAGGTGAGTATAGTAGTTAGGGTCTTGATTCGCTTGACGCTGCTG | 794
GAAGTAGAAGGTCATCACGAATATTAATTTTGTTAGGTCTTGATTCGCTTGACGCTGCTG | 559
GAATGATCACATTTCCACGCCATTTCGCATTCTTAGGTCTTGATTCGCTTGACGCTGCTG | 601

A few entries again (block 1):
Strand | E-score
AAATTGTG | -0.371
AGACATTC | -0.0714
TGGTTACA | -0.0555
AGCACTTC | -0.121
ATGGCGTA | 0.158
AGCATGTG | -0.096
ATAAGGGG | -0.0261
GAGGTCAA | -0.184
GCAGAATA | 0.00898
GCTCTTCA | 0.00864
AAAAGCGG | 0.315
AGATCAGC | 0.0794
ATGTCTTC | -0.163
